Assay results of several laboratories.
Each numbered part is a random draw from the data of one study; scales do not carry over between parts.
Sequence of UniProt P35368 (whole entry, looked up): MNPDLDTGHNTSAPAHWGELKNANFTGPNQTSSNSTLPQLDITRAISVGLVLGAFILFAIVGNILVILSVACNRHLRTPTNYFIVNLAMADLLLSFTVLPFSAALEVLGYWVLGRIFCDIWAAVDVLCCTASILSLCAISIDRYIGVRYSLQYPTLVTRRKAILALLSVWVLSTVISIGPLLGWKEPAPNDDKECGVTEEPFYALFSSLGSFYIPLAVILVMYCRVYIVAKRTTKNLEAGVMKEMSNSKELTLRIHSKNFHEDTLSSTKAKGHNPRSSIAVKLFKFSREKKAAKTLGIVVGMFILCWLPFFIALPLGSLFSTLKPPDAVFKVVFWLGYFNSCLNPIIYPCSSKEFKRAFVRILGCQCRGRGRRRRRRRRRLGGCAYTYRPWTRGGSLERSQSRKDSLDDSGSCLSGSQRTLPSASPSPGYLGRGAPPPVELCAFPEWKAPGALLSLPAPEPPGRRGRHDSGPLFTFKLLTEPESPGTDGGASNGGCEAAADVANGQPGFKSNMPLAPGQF
Sequence of UniProt Q02763 (whole entry, looked up): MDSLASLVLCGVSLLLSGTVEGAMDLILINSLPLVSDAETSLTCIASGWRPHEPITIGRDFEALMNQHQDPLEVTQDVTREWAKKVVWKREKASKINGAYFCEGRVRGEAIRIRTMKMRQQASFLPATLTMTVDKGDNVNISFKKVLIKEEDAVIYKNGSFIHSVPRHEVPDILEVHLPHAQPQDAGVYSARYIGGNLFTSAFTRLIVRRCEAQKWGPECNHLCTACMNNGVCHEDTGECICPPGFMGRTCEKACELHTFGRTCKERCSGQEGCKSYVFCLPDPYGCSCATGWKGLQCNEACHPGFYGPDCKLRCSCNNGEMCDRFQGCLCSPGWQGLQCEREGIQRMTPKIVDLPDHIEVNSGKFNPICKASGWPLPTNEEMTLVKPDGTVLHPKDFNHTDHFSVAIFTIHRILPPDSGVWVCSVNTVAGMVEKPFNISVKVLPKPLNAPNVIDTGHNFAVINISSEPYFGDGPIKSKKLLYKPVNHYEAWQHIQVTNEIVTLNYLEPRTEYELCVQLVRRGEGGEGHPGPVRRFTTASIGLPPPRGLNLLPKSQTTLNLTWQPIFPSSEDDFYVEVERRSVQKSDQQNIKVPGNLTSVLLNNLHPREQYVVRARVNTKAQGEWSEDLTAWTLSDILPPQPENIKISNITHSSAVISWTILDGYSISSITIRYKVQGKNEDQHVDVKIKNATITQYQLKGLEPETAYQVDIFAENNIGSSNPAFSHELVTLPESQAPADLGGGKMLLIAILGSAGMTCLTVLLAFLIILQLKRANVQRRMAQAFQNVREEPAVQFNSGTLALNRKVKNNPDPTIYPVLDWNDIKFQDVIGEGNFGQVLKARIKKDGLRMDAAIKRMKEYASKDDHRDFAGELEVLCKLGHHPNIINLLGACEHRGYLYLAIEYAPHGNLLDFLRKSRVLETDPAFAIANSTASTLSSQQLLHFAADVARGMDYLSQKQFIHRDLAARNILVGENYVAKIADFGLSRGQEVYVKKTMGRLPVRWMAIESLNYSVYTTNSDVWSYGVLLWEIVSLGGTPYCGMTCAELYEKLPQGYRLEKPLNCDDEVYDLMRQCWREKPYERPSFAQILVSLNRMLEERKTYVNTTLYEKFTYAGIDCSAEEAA
Sequence of UniProt Q9Y5N1 (whole entry, looked up): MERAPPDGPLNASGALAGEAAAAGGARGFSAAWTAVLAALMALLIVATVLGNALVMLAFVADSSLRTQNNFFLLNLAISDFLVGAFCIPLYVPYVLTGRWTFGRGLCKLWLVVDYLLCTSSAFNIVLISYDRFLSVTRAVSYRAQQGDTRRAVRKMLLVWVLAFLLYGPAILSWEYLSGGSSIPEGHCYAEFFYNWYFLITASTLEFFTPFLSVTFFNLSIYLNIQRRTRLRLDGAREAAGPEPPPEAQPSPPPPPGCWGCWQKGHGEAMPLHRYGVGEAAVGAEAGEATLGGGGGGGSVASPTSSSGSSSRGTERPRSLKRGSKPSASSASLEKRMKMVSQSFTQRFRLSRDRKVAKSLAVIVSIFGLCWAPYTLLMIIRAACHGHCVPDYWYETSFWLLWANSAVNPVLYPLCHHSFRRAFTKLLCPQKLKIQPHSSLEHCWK
Sequence of UniProt P36896 (whole entry, looked up): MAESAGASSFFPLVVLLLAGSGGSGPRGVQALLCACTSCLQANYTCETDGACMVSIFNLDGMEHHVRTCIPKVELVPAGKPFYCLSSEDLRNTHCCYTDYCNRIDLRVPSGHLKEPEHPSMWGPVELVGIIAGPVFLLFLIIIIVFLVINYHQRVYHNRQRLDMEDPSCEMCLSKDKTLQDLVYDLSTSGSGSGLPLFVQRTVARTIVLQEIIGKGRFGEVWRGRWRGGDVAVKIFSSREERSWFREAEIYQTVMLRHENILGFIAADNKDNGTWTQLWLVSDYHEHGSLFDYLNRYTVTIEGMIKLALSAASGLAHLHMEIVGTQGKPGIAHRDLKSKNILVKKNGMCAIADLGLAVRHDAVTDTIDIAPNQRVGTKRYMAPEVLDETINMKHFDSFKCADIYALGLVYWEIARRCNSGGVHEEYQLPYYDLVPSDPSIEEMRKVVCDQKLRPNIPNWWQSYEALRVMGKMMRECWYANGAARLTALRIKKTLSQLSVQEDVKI
Sequence of UniProt P50406 (whole entry, looked up): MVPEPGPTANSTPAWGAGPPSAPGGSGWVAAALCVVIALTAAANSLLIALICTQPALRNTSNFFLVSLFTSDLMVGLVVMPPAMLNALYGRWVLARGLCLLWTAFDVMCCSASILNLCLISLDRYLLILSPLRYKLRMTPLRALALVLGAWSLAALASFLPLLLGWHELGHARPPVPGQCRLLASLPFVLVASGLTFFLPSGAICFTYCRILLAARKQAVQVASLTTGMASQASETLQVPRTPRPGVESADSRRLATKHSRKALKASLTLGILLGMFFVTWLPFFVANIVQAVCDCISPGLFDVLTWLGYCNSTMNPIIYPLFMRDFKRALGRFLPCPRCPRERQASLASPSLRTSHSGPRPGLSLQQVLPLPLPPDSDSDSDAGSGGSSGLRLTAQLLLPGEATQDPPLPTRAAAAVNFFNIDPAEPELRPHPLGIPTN
Sequence of UniProt P25100 (whole entry, looked up): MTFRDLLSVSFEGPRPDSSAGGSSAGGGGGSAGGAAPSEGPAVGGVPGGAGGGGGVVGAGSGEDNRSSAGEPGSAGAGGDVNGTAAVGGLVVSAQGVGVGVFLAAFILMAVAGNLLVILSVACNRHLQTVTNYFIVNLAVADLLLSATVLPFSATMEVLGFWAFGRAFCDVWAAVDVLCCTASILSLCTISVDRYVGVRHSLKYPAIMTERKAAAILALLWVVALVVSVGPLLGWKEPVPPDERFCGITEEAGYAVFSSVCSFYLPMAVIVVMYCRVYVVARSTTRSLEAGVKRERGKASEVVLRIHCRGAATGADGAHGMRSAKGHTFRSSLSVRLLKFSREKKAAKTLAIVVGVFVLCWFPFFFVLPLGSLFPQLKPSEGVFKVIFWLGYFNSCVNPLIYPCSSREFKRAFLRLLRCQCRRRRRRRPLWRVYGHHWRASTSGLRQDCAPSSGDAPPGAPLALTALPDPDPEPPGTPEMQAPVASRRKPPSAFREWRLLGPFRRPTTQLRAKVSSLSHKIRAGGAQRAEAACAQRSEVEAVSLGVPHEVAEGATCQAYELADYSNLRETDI
Sequence of UniProt Q6PHR2 (whole entry, looked up): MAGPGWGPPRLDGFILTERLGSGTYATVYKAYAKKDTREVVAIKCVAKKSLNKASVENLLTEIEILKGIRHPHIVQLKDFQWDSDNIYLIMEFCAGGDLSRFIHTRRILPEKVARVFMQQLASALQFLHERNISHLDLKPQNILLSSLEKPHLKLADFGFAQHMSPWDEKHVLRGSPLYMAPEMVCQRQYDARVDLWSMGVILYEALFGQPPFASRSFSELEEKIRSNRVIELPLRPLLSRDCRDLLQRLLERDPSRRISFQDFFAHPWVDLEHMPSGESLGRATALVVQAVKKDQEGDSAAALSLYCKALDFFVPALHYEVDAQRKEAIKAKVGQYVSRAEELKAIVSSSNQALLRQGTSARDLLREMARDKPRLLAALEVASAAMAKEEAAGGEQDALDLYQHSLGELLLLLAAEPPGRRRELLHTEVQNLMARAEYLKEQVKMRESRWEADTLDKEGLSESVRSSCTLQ
Sequence of UniProt P35367 (whole entry, looked up): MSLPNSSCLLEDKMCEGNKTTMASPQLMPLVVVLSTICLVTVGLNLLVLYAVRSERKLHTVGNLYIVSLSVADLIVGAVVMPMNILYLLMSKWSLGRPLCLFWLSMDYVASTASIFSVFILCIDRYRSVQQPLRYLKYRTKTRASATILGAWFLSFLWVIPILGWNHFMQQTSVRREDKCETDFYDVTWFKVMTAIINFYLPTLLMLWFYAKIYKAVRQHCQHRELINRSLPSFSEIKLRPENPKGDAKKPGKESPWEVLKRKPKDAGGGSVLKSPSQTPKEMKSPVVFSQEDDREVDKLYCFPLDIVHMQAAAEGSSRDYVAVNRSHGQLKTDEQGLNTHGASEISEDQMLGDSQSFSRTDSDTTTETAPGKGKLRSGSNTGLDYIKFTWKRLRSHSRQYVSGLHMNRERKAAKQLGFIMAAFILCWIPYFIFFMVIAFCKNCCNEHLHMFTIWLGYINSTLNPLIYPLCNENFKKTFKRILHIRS
Sequence of UniProt P78368 (whole entry, looked up): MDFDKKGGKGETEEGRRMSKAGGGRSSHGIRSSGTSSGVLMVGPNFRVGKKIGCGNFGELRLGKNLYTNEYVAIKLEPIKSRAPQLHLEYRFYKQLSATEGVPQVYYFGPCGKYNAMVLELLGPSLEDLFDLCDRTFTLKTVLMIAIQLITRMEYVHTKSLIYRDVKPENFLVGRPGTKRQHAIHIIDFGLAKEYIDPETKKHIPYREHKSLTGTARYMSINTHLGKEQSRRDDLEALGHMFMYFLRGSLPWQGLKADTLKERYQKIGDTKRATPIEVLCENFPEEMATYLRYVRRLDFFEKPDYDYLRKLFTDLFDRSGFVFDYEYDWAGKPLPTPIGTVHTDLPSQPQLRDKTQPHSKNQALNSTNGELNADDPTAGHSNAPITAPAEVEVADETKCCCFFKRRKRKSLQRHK

Sample 1
Compound: CCCNC(=O)Nc1ccc(Oc2ncnc3cc(OC)c(OC)cc23)cc1Cl
Read-out: enzyme activity
Mode: inhibitor
Tested at: 0.5 µM
Relative to: control
The remaining activity was 80.7% (ULK3 (Homo sapiens, UniProt Q6PHR2)).
For NEK1 (Homo sapiens, UniProt Q96PY6): remaining activity read 91.8%.
LCK (Homo sapiens, UniProt P06239) — remaining activity: 81.8%.
The remaining activity was 84.8% (CSNK1G2 (Homo sapiens, UniProt P78368)).
It gave 87% for remaining activity (TEK (Homo sapiens, UniProt Q02763)).
For EPHA3 (Homo sapiens, UniProt P29320): remaining activity read 98.5%.
MAP2K2 (Homo sapiens, UniProt P36507) — remaining activity: 99.8%.
For ACVR1B (Homo sapiens, UniProt P36896): remaining activity read 99.6%.
The remaining activity was 109% (MAP3K14 (Homo sapiens, UniProt Q99558)).
CSNK1G3 (Homo sapiens, UniProt Q9Y6M4) — remaining activity: 105%.
TAOK2 (Homo sapiens, UniProt Q9UL54) — remaining activity: 94.5%.
For FGFR3 (Homo sapiens, UniProt P22607): remaining activity read 84.5%.
For MAP3K5 (Homo sapiens, UniProt Q99683): remaining activity read 102%.
The remaining activity was 91.3% (GSK3B (Homo sapiens, UniProt P49841)).

Sample 2
Structure (SMILES): CN(C)C(=O)Cn1cc(-c2nc(C3(c4ccc(-c5cnc(N)nc5)cc4)CC3)no2)cn1
Read-out: cell-free assay
Tested at: 10 µM
The inhibition was 3.05% (ADRB3 (Homo sapiens, UniProt P13945)).
For HRH3 (Homo sapiens, UniProt Q9Y5N1): inhibition read 3.45%.
The inhibition was -27.3% (HTR7 (Homo sapiens, UniProt P34969)).
SIGMAR1 (Homo sapiens, UniProt Q99720) — inhibition: -4.19%.
For HTR6 (Homo sapiens, UniProt P50406): inhibition read -7.48%.
The inhibition was 8.78% (HRH1 (Homo sapiens, UniProt P35367)).
ADRA2A (Homo sapiens, UniProt P08913) — inhibition: 22.4%.
It gave 5.11% for inhibition (ADRA1B (Homo sapiens, UniProt P35368)).
For ADRA1D (Homo sapiens, UniProt P25100): inhibition read -15.4%.
For CHRM4 (Homo sapiens, UniProt P08173): inhibition read 5.81%.

Sample 3
Target: Runt-related transcription factor 1, full length (RUNX1, Homo sapiens, UniProt Q01196-8, residues 1-480)
Technique: protein-binding microarray
Form: hairpin DNA
Matrix: in vitro
Tested at: not given
Notes: whole hairpin DNA, median over replicate spots
Relative to: not given
Direction: higher = stronger binding
For `GAGGCCTGGTGCGGTTGGCCTCCTGGCCAACCGCACCAGGCCTCACACTC`, the median fluorescence was 2920 a.u.
`CTCAGTTCTGCGGGCTGGACTCCTGTCCAGCCCGCAGAACTGAGACACTC` gave a median fluorescence of 2270 a.u.
`CTCAGTCGTGTGGGCTGGACTCCTGTCCAGCCCACACGACTGAGACACTC (5mC at 37)` has a median fluorescence of 1940 a.u.
The median fluorescence of `CTCAGTTCTGCGGGCTGGACTCCTGTCCAGCCCGCAGAACTGAGACACTC (5mC at 33)` is reported as 1730 a.u.
`GAGGCCTGTTGTCGTTGGCCTCCTGGCCAACGACAACAGGCCTCACACTC` has a median fluorescence of 1650 a.u.
The median fluorescence of `GAGGCCTGTCGCGGTTGGCGTCCTCGCCAACCGCGACAGGCCTCACACTC (5mC at 25)` is reported as 2960 a.u.
`GAGGCCTGTCGCGGTTGGCCTCCTGGCCAACCGCGACAGGCCTCACACTC (5mC at 12 32 34)` gave a median fluorescence of 1810 a.u.
`CTCAGTTCTGTGGGCCGGACTCCTGTCCGGCCCACAGAACTGAGACACTC` gave a median fluorescence of 1900 a.u.

Sample 4
Target: Interferon regulatory factor 5, full length, phosphomimetic (IRF5, Homo sapiens, UniProt Q13568-2, residues 1-514, S451D/S453D/S456D/S462D)
Technique: protein-binding microarray
Form: double-stranded DNA, one strand shown
Matrix: in vitro
Tested at: 940 nM top
Notes: 60-bp whole probe
Added: salmon DNA 0.4 mg/ml
Relative to: random background probes
Direction: higher = stronger binding
Constant ends, left off below: GCCTAGCAC … GTCTTGATTCGCTTGACGCTGCTG
`GACGGTATCCTACTACTGACGTGCTAG`: “fitted relative affinity” 0.214 z-score.
Under “fitted relative affinity”, `GACGATCTCAGTTTCGATACGTGCTAG` is recorded as 8.45 z-score.
`TCAAGTTGTACTTTCTAACTGTGCTAG` — result for “fitted relative affinity”: 0.0199 z-score.
Under “fitted relative affinity”, `TTAGCTCTCGGTATCGGTTAGTGCTAG` is recorded as 7.39 z-score.
`GACGGTCTCCCTTTCCTGACGTGCTAG`: “fitted relative affinity” 0.597 z-score.
Under “fitted relative affinity”, `GACGAACTGCTTTTCCTGACGTGCTAG` is recorded as -0.00276 z-score.
Under “fitted relative affinity”, `GACGGACTTGGTCTCGGGACGTGCTAG` is recorded as 0.342 z-score.
For `TTAGGTTTAGGGTTTCGGTTAGTGCTA`, “fitted relative affinity” read 5.44 z-score.

Some of these lines once more (sample 2):
For HRH3 (Homo sapiens, UniProt Q9Y5N1): inhibition read 3.45%.
The inhibition was -27.3% (HTR7 (Homo sapiens, UniProt P34969)).
SIGMAR1 (Homo sapiens, UniProt Q99720) — inhibition: -4.19%.
For HTR6 (Homo sapiens, UniProt P50406): inhibition read -7.48%.
